Assay results gathered from unrelated publications.
Target: Phosphatidylinositol 3-kinase C2 domain-containing subunit gamma (PIK3C2G, Homo sapiens, UniProt O75747)

CC(=O)c1cnc(N)nc1N1CC[C@H]1c1nn2ccc(Cl)c2c(=O)n1-c1ccccc1 has a remaining binding of 5.9% (KINOMEscan competition binding; 10 µM).
For Cc1ccc(-c2c(/C=C(\C#N)C(=O)NC(C)C)n(CCCO)c3ncnc(N)c23)cc1, the remaining binding was 90% (cell-free assay, competition with immobilised ligand; 1 µM).
Nc1ncc2c(n1)-c1c([nH]c3ccc(C4=CCOCC4)cc13)CCC2 has a remaining binding of 51% (binding, competition with immobilised ligand; 1 µM).
For Cc1cnc2nc1Nc1cccc(c1)COC/C=C/COCc1cc(ccc1OCCN1CCOCC1)N2, the remaining binding was 74% (binding; 0.1 µM).
For CNC1C[S+]2CC[S+]3CC[S+](C1)[Ru-4]321([N]=C=S)[n]2c3ccc(OC)cc3c3c4c(c5cc(F)c[n+]1c5c32)C(=O)NC4=O (centres unmarked), the remaining binding was 79% (KinomeScan; 0.1 µM; reference: untreated).
With C=CC(=O)N1CCCC(n2c(=O)c3ncccc3n(Cc3ccc(Oc4ccccc4)cc3)c2=O)C1 (centres unmarked) the remaining binding was 92% (cell-free assay, competition with immobilised ligand; 1 µM).
Cc1nc2c(F)cc(-c3nc(Nc4ccc(CNC(=O)CCCCCCC(=O)NO)cc4)ncc3F)cc2n1C(C)C gave an inhibition of 61% (enzyme activity, inhibitor; 1 µM).
With CCN1CCN(Cc2ccc(C(=O)Nc3ccc(C)c(NCc4cnc5[nH]ccc5c4OC)c3)cc2C(F)(F)F)CC1 the remaining binding was 89% (binding, competition with immobilised ligand; 1 µM).
O=C(Cc1ccc(OCc2ccccc2)cc1)NC1(C(=O)O)CCN(C(=O)c2ccc(-c3cccc(Cl)c3)cc2)CC1: “activity vs control” 110% (enzyme activity, inhibitor; 10 µM).
With C=CC(=O)N1Cc2nc(-c3cc(-c4cc(Cl)cnc4Cl)c(F)cc3F)n(-c3ccncn3)c2C1 the inhibition was 4.4% (cell-free assay; 1 µM).
C[C@H]1CN(C(=O)c2cn(-c3ccnc(N)n3)c3cc(C#CC4(O)CCCCC4)ccc23)CCN1 has an inhibition of 6% (enzyme activity, inhibitor; 1 µM).
COc1c(Cl)cccc1Nc1c(-c2ccncc2C#C[C@@]2(C)CCCN2C(=O)/C=C/CN(C)C)[nH]c2c1C(=O)NCC2 has a remaining binding of 72% (binding, competition with immobilised ligand; 3 µM).
CNC(=O)C[C@H](Cc1ccc(C#N)cc1)NC(=O)c1cc(-c2ccc(CN[C@H](C)c3ccc(C)cc3)o2)ccc1Cl: “activity vs control” 95% (enzyme activity, inhibitor; 1 µM).
With CN1CC[C@@H](COc2cnc(C#N)cc2-c2ccn3nc(NC(=O)C4CC4)cc3c2)C1 the inhibition was 3% (enzyme activity, inhibitor; 1 µM).
With C=CC(=O)N1CCc2ccc(-n3c(=O)ccc4cnc5ccc(-c6cnn(C)c6)cc5c43)cc21 the remaining binding was 100% (KINOMEscan; 1 µM; reference: DMSO control).
With CC(C)=CC1OC(C)(C)C2C=C3C(=O)C(Cl)=CC(O)C3C3C(O)C4OC4C(=O)C132 (centres unmarked) the remaining binding was 75% (cell-free assay, competition with immobilised ligand; 10 µM).
COc1cc(Nc2nccc(-c3cnn4nc(OC)ccc34)n2)cc(C(F)(F)F)c1 gave a remaining binding of 85% (binding, competition with immobilised ligand; 1 µM).
For CNC(=O)C1CCN(c2cc(C)c(F)cc2NC(=O)c2ccc(-c3cc(O)ccc3C)c(C)c2)CC1, the remaining binding was 100% (binding, competition with immobilised ligand; 1 µM).
COc1cc(Nc2nc(C)cc(-c3cnn4nc(OC)ccc34)n2)cc(C(F)(F)F)c1 gave a remaining activity of 89% (inhibitor; 1 µM; reference: control).
For CN1CCN(Cc2ccc(-c3ccc(CO[C@H]4CCC[C@@H]4NC(=O)c4cc(-c5cnn(C)c5)cnc4N)cc3)cc2)CC1, the inhibition was 8% (enzyme activity, inhibitor; 0.1 µM).

Repeated from above:
With CC(C)=CC1OC(C)(C)C2C=C3C(=O)C(Cl)=CC(O)C3C3C(O)C4OC4C(=O)C132 (centres unmarked) the remaining binding was 75% (cell-free assay, competition with immobilised ligand; 10 µM).
COc1cc(Nc2nccc(-c3cnn4nc(OC)ccc34)n2)cc(C(F)(F)F)c1 gave a remaining binding of 85% (binding, competition with immobilised ligand; 1 µM).
